Experimental data from different studies.
A part holds a random share of what one study measured. Substitutions count along the parent as printed.

Study 1
Target: RNA binding protein fox-1 homolog 2, RRM domain, GST-SBP tag (RBFOX2, Homo sapiens, UniProt O43251-10, residues 100-194)
Method: RNA Bind-n-Seq
Form: RNA
Medium: in vitro
Concentration: 365 nM
Notes: natural RNA segment, single round, ends assumed
Baseline: no-protein control
Direction: higher = stronger binding
Shared flanks, not repeated: GGGAGUUCUACAGUCCGACGAUC … UGGAAUUCUCGGGUGCCAA
Construct (chain): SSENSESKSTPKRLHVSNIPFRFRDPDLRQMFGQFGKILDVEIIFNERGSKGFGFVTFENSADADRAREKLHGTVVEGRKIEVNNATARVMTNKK
| Oligonucleotide | RBNS enrichment (R) |
| --- | --- |
| AGAGGCCUGGCUUGCCUUGCCCAGUGCUGCCUAUAGCAUCCUCCCAGGGAGGCUUGCCCUGUGCCAGAAAACAAGAGGCCACCAUAUGCUUCCAAGUUGACAGGCAAUUC | 0.361 |
| AAAAUUAACUCUGAAGGUCAGUCUACCUGACAUUACCUAGGCAUGGUGUUGUCCAAGCUGCGCAUCGGUGCACAGUGUGGCCUGGCACACACGCAGGCGGGCGACGGAAC | 1.19 |
| UCAACUACUAGACAGCCAGGCUAAGCCUUCUCAUUCUGUUCUGAAGAUUCUAAAAAAAUUCGAACCAUCAACAAUAGUAUGUAUAAUUUGAACUUCCAUGAUUGAUCCUU | 0.327 |
| GUGGAAAGUGCCCCUCAAAAGCAUUUGUGUGGCCACAUGAACUGGCUGGCACCAGGGGAGUGAAACUGGCUGAUGACCAGCUGAGCCACUUUGUGCCAACAGAGGAUGGA | 0.272 |
| UAUUUGACUUUGGAAUUUUGCAUUCGAGGUAUACUGUCAUUUCUUGAAAUCUUUUUCUCGUUUAGUUGCUCUGUGGGAAAUGUGAGGAAGCCUAAGUUUGUAUUUGUAAA | 1.09 |
| AGGUGCUCCCUCCACCCAAUACCAUUUCUUACCCUCUAAUCCUACCUGAUCUUUAACAAAGCAUUAAUAAUUCUAAGGAUAAUCUCUAUUUUGUUGUGCUUUUUUGUAAC | 0.536 |
| AAAACAAAAAUGAAAGGAAAAGGGUCCUUAUUUGCAAGGCUACUUUAAAGUGCUACUUGAAAGCACAGGCUAGACAGAAAGCACAAGGAACCUAGGGGGUUGAUACAAUG | 0.537 |
| CUCUGCCUCCCGGCCUGGGCUUGUUCUCAGGUCAGCCGCUGCUUUGUUCACUAUCAGUCUGGAGUGACUCUAUCUCCAGCAGUGCUCCCUGAGUGGCAGUGUUCCCUCAU | 0.193 |
| UCUUGCUGCCCAGGCUGGAGUGCAAUGGUGCAAUGACCUCGGCUCACUGCAACCUCUGCCUCCUGGGUUCAAGUGAUUCUCCAGCCUCAGCCUCCCGAGUAGCUGGGAUU | 0.211 |
| AGUUUCUGAAGAUUUUAUUAUCAUAGAUACUUGUUUUGGUUUUGUGUAUCUGUACUCUCUGCAGAUGGUCCAAAAUUGUAAUGGAGUCUGUAUUAGAAGAAAAUAAGGGU | 1.11 |
| CUUCCAUGACCUUGGAGGUAUAUCCCAAGCUCUCAUUGGCAGAUGAGGCAAGAGAUAAGGGCAGGAUAUAGCACAUGAUGGCUUCCAGCAGAACUGAGUCUAUAGCCCAG | 0.478 |
| AUGGAAGAAUAUCUGGCAGGCUUACUUUUAGAAGACGACAAAUCGGUAAGGCUUAUUCAUGGUUCAUUGCCAGGAGCAGAUAUGCUUUUGAGAUCACUUUUAUUUUUGAA | 0.57 |

Study 2
Target: Ras GTPase-activating protein-binding protein 1, RRM domain (G3BP1, Homo sapiens, UniProt Q13283)
Chain of UniProt Q13283 (whole entry, looked up): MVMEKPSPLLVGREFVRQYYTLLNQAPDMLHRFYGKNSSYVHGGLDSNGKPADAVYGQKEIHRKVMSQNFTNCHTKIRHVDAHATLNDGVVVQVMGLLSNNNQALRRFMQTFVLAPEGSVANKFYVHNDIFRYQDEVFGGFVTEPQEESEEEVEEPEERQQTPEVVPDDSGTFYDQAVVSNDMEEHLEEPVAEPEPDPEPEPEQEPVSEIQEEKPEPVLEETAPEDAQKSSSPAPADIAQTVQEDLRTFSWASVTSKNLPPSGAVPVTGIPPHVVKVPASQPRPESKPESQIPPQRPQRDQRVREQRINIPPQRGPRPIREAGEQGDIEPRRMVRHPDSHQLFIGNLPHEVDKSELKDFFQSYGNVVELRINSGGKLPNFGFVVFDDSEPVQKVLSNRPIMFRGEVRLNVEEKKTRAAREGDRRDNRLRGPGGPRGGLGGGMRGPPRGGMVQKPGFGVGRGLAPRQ
Method: RNA Bind-n-Seq
Form: RNA
Medium: in vitro
Concentration: 1 µM
Notes: whole 134-nt RNA, ends assumed
Added: 150 mM KCl
Baseline: input library
Direction: higher = stronger binding
Shared flanks, not repeated: GGGAGUUCUACAGUCCGACGAUC … UGGAAUUCUCGGGUGUCAAGG
| Oligonucleotide | log2 enrichment |
| --- | --- |
| ACCAUGCAGGUGGGCAUCUUUGGGAAGUGGGGCAAGGGGGGGAUAGGGAGGGGGGUAACACUUUGGGAUCAGGUGGUCCCAGGUCGUUUC | 0.651 |
| AGUCCUGUGCUACACAUCGUAUGUACCGAAUCGGGUUUUUGGGAAAAAAAGGGAGGGAAAGUAUUAUGUUACGCCGUUCGGAUCUGCACU | 0.46 |
| AAGUCCUGUGCUACACAUCGUAUGUACCGAAUCGGGGAAAGGGGAAAGGAAAGGGGAAAGUAUUAUGUUACGCCGUUCGGAUCUGCACUU | 0.125 |
| GCAGGAAGUAAAAACAAAUGGAAAUGCUUCGGAUAGUGGCAGGGGUGGGGGUUGCUAAGGAAAGGGUGGGAGGGGAGUGGGUAAAGAGUU | 0.916 |
| CCUGUGCUACACAUCGUAUGUACCGAAUCGGGGAAAAAAGGGAAAAAAGGGGAAAAAAGGAAAGUAUUAUGUUACGCCGUUCGGAUCUGC | 0.00255 |
| UGGCCCUGGUGGCAUGCGGGGAGGAAGAGGUGGCCUCAUGGAUCUUGGUGGUCCCGGUGGAAUGUUCAGAGGUGGCCGUGGUGGAGACAG | 1.35 |
| UCAUUUUUUUCCCUGCCGGAAUUUUAGCAUUGAUAUGAACCAUGGACAAGUAUAUUCUGCUGCCACAAAGACUGUAAAGUGCUUCAUUUC | -0.187 |
| GCAGGAAGUAAAAACAAAUGGAAAUGCUCCGGAUAGUGGCAGGGGUGGGGGUUGCUAAGGAAAGGGUGGGAUGGGAGUGGGUAAAGAGUU | 1.46 |
| CACAGACAACACGCACCCACACAGACACAGAGGGAAGGGGUUGGGAUGGGGACAGGGUGCACAGCAGGGCGGGAUAGGACCCCAGCCCCU | -0.327 |
| CUGUGCUACACAUCGUAUGUACCGAAUCGGGGAAAGGGGAAAAAAAGGGGUUUUUUUGGGGAAAGUAUUAUGUUACGCCGUUCGGAUCUG | 0.685 |
| CAAGUCCUGUGCUACACAUCGUAUGUACCGAAUCGGCCCGGGGCCCGGGCCCGGGGAAAGUAUUAUGUUACGCCGUUCGGAUCUGCACUU | -0.732 |
| ACCAUGCAGGUGGGCAUCUUUCGGAAGUGGGGCAAGGGGGGGAUAGGGAGGGGGGUAACACUUUGGGAACAGGUGGUCCCAGGUCGUUUC | -0.546 |
| UGGGAGGUGGAUUUUGUUUAUUUUUUUAGCUCAUUUCCAGUGGUGGGAAUUUUUUUUUAAUAUGUGUCAUGAAUAAAGUUGUUUUUGAAA | 1.07 |
| UGAUGGGACAACACCCGAAAGGAUAGCACAAAUAACAGGACCUCCAGACCGAUGUCAACAUGCUGCAGAAAUUAUUACAGACCUUCUUCG | 0.0649 |

Study 3
Target: ABI1, truncated, D143A, DHFR fusion (Arabidopsis thaliana)
Method: DHFR PCA, deep sequencing
Medium: yeast
Notes: methotrexate growth selection, single substitutions
Added: (+)-ABA 0.0091 µM
Baseline: wild-type fitted maximum
Direction: higher = stronger binding
Starting sequence: PYL1, truncated, DHFR fusion (Arabidopsis thaliana); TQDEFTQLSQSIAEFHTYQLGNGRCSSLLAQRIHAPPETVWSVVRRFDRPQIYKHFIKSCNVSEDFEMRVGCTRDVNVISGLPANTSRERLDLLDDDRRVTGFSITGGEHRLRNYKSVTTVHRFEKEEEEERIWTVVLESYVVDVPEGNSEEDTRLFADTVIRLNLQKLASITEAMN; partner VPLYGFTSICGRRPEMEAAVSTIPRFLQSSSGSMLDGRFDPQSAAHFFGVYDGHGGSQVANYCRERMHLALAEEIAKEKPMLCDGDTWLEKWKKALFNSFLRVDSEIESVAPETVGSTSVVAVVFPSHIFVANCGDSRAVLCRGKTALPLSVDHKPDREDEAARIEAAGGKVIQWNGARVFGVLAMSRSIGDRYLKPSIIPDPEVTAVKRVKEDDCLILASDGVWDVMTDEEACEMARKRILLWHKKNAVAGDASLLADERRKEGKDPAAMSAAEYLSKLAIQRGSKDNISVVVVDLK
| Substitution | relative binding score |
| --- | --- |
| Q51M | -7.15% |
| K126R | 34.1% |
| V137Q | 0.961% |
| L20D | 28% |
| R46E | -2.36% |
| R113F | -6.51% |
| Q7V | 25% |
| I172W | -9.27% |
| G21N | 9.71% |
| R69Q | 26.4% |
| C60V | 41.4% |
| E64C | 15.2% |
| L164D | 0.36% |
| I105T | 0.436% |
| S63D | 40.7% |
| E130R | 26.1% |
| S140L | 0.751% |
| E67S | 16.2% |
| L166R | 0.114% |

Study 4
Target: Interferon regulatory factor 5, full length, phosphomimetic (IRF5, Homo sapiens, UniProt Q13568-2, residues 1-514, K96S/S451D/S453D/S456D/S462D)
Method: protein-binding microarray
Form: double-stranded DNA, one strand shown
Medium: in vitro
Concentration: 250 nM
Notes: 60-bp whole probe
Added: salmon DNA 0.4 mg/ml
Baseline: random background probes
Direction: higher = stronger binding
Shared flanks, not repeated: GCCTAGCAC … GTCTTGATTCGCTTGACGCTGCTG
| Oligonucleotide | log fluorescence |
| --- | --- |
| GACGATATCGGGACTCGAGACGTGCTA | 0.896 z-score |
| TTAGATATAAGACTGGATTAGTGCTAG | 0.0652 z-score |
| TTAGGTTTCGGTATCGGTTTGTGCTAG | 11.2 z-score |
| GACGGTTTCGGTTCCGGGAAGTGCTAG | 10.1 z-score |
| TTAGGACTACTTTTCCTTTAGTGCTAG | 0.475 z-score |
| TCATGTTTCTCAACCAGACTGTGCTAG | 0.595 z-score |
| GACGGTATCCTTCTCGTGACGTGCTAG | 0.168 z-score |
| TTAGGACTGAGACTGGGTTAGTGCTAG | -0.463 z-score |
| TGGCCTGTGCTATTTATAAGGGTGCTA | -0.372 z-score |
| TTAAATATCGGGTATCGATTAGTGCTA | 6.57 z-score |
| GACTATGCCGACTTTGGAAGTGTGCTA | -0.447 z-score |
| GTCGGTTTCGGGTATCGGGACGTGCTA | 8.96 z-score |
| TCAGATTTCCACTTTCTACTGTGCTAG | 2.47 z-score |
| GACGGTCTCGGTATCGGGCCGTGCTAG | 0.821 z-score |
| GAGGGACTGCTTTTCCTGACGTGCTAG | -0.00709 z-score |
| TTAGGACTGGATACTGGGTTAGTGCTA | -0.108 z-score |
| TTAGATATCAGTCTCGCTTAGTGCTAG | 1.37 z-score |
| TCCTCTCTGCCACTCAGGTAGTGCTAG | -0.182 z-score |
| TTAGAATTCGGGTTTCGATTAGTGCTA | 7.29 z-score |

Study 5
Target: Sal-like protein 4, full length isoform B (SALL4, Homo sapiens, UniProt Q9UJQ4-2, residues 1-616)
Method: universal PBM
Form: double-stranded DNA, one strand shown
Medium: in vitro
Concentration: not given
Notes: 8-mer, flanks averaged, mean of replicates
Direction: higher = stronger binding
| Oligonucleotide | E-score |
| --- | --- |
| ACAACGCT | 0.0824 |
| AACAACAT | 0.147 |
| CTCAAACA | 0.0814 |
| CAATGTAC | 0.0581 |
| ATAAATTC | 0.322 |
| CCGGCATC | -0.283 |
| ATCCCCAC | -0.208 |
| GAGTAAAC | 0.0491 |
| CACGTACA | 0.0638 |
| GAAACAGC | -0.0701 |
| ACCTATGA | 0.0785 |
| CTCGATCA | -0.138 |
| CGGGCTCA | -0.313 |
| CGCGAGGC | -0.194 |
| AAGCCGCC | -0.32 |
| CTCTTATA | 0.278 |
| GGTTGTAC | -0.137 |
| ACACAAAG | 0.106 |
| AACCGATA | 0.115 |
| TGACACAA | 0.169 |

For quick reference, copied from above (study 3):
| Substitution | relative binding score |
| --- | --- |
| I172W | -9.27% |
| V137Q | 0.961% |
| C60V | 41.4% |
| Q7V | 25% |
| E64C | 15.2% |
| Q51M | -7.15% |
| S63D | 40.7% |
| R69Q | 26.4% |
| E67S | 16.2% |
| L166R | 0.114% |
| I105T | 0.436% |
